Measurements pooled from the literature.
Parts stem from different laboratories: compare values within a part only.
Chain of UniProt Q9H093 (whole entry, looked up): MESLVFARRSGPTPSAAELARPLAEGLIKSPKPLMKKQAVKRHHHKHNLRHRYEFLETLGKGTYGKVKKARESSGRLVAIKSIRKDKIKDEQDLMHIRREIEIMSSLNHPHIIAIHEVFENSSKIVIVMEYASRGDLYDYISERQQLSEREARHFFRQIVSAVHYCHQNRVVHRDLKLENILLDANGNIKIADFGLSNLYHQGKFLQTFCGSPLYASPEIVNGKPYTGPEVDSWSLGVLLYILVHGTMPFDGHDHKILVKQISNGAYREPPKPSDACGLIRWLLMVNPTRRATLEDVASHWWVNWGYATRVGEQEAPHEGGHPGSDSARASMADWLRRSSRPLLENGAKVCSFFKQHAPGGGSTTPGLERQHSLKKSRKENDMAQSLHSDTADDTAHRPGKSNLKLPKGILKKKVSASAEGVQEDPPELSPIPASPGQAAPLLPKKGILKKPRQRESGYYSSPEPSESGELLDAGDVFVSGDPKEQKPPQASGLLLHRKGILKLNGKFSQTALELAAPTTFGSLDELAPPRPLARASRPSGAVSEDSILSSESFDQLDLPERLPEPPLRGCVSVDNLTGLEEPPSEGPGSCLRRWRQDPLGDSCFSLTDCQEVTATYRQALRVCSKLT
Chain of UniProt O60674 (whole entry, looked up): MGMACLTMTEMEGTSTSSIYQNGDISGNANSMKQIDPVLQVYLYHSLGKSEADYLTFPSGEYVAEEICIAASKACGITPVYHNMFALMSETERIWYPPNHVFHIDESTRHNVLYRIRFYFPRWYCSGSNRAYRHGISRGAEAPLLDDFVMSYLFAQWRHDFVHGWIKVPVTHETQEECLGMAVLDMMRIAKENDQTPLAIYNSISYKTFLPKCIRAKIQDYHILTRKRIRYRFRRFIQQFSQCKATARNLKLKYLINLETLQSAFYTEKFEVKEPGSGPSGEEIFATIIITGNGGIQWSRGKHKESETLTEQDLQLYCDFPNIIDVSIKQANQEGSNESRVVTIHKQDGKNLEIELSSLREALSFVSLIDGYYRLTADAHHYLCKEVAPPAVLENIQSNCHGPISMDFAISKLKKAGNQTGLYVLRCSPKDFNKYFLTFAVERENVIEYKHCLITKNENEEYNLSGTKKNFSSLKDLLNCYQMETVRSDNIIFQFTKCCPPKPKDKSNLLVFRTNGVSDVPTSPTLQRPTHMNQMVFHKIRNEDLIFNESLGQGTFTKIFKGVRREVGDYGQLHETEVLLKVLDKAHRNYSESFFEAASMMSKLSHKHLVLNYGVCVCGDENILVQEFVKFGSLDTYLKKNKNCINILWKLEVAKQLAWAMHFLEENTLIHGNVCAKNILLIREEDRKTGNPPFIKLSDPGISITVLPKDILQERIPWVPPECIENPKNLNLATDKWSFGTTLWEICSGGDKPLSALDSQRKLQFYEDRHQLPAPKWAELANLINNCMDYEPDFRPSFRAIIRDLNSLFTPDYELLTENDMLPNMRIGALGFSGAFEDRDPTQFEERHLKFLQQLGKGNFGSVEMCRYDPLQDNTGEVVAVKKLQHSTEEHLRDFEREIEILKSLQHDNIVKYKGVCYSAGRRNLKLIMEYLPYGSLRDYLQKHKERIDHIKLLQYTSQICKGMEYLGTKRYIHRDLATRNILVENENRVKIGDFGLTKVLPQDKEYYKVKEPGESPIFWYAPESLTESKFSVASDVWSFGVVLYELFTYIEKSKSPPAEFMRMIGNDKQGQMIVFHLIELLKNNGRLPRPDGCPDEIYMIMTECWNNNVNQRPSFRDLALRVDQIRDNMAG
Chain of UniProt Q96PY6 (whole entry, looked up): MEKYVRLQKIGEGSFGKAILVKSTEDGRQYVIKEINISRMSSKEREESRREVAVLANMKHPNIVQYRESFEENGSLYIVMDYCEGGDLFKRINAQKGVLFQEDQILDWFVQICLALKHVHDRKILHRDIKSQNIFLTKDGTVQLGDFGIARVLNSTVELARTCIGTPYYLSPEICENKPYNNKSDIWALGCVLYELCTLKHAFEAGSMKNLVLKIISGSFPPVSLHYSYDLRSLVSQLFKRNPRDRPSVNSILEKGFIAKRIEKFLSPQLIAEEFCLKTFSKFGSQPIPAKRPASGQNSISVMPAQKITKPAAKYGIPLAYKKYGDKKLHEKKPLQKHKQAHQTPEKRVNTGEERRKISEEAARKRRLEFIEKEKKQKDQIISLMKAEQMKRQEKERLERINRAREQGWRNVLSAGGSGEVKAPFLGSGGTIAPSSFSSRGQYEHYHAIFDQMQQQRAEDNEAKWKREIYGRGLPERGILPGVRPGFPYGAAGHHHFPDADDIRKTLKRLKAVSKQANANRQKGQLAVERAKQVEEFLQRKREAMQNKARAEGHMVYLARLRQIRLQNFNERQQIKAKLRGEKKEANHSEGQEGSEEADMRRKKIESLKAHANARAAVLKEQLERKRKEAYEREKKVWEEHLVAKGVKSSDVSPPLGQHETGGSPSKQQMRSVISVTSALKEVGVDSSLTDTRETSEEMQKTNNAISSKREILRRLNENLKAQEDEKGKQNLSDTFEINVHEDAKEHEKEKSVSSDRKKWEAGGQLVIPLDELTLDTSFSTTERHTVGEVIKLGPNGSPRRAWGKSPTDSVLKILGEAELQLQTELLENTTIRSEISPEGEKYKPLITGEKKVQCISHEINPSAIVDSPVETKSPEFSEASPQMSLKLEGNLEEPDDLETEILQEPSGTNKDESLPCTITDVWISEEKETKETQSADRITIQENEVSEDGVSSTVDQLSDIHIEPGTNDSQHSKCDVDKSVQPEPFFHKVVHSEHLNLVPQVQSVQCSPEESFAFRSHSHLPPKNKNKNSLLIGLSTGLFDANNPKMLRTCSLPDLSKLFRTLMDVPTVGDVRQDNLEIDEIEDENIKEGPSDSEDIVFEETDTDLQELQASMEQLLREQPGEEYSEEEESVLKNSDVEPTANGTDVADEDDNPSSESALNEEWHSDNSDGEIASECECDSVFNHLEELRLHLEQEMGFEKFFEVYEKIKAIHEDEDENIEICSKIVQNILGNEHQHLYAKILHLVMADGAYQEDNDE
Chain of UniProt Q9UF33 (whole entry, looked up): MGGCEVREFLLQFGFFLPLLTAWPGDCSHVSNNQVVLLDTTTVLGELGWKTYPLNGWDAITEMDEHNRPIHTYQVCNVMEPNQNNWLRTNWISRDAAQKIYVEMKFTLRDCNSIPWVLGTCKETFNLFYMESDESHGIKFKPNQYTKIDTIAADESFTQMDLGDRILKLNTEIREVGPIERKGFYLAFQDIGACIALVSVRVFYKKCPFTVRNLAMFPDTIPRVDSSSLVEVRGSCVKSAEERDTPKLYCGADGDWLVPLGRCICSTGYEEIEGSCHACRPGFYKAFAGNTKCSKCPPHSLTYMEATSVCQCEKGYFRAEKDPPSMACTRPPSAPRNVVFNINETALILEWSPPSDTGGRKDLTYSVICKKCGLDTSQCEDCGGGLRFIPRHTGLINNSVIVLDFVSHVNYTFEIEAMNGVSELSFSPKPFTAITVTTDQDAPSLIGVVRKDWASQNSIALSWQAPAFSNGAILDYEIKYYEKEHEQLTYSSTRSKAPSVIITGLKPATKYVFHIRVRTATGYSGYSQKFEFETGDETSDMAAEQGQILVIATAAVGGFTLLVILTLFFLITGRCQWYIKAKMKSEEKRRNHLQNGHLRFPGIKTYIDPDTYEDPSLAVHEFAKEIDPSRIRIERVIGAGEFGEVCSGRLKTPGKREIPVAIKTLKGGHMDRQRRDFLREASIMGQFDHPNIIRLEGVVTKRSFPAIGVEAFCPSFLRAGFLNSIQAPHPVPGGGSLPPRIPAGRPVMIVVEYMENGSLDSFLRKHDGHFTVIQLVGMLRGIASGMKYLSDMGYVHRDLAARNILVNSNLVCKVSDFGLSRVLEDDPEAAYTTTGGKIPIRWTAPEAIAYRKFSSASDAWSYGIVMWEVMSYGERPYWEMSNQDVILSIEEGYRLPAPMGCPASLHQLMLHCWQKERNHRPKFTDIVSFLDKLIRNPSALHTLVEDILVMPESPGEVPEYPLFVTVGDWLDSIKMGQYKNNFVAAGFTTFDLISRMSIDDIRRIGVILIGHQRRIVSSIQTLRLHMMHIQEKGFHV

Series 1 — organism: Sarcocystis neurona; observed: parasite growth; tested at: 10 µM; notes: secondary screen; endpoint: inhibition
CC(COc1ccccc1Cc1ccccc1)N1CCCCC1.O=P(O)(O)O (centres unmarked): 12.2%
Nc1ncnc2c1ncn2[C@@H]1O[C@H](CO)C[C@H]1O: -22.3%
CC(C)(C)NCC(O)c1ccc(O)c(CO)c1.CC(C)(C)NCC(O)c1ccc(O)c(CO)c1.O=S(=O)(O)O (centres unmarked): -31.9%
c1ccc(-c2ccc(C(c3ccccc3)n3ccnc3)cc2)cc1 (centres unmarked): 35.3%

Series 2 — observed: cell-free assay; technique: competition with immobilised ligand; tested at: 1 µM; endpoint: remaining binding
Compound: O=C(Nc1cccnn1)N1CC(C/C=C/c2cncc(Oc3ccc(C(F)(F)F)cn3)n2)C1
Serine/threonine-protein kinase mTOR (MTOR, Homo sapiens, UniProt P42345): 100%
NUAK family SNF1-like kinase 2 (NUAK2, Homo sapiens, UniProt Q9H093): 73%
Serine/threonine-protein kinase Nek1 (NEK1, Homo sapiens, UniProt Q96PY6): 100%
Ephrin type-A receptor 6 (EPHA6, Homo sapiens, UniProt Q9UF33): 100%
Hormonally up-regulated neu tumor-associated kinase (HUNK, Homo sapiens, UniProt P57058): 89%
Tyrosine-protein kinase JAK2, JH1 (JAK2, Homo sapiens, UniProt O60674): 88%

Series 3 — observed: enzyme activity; action: inhibitor; tested at: 0.5 µM; relative to: control; endpoint: remaining activity
Target: Tyrosine-protein kinase Lyn (LYN, Homo sapiens, UniProt P07948)
Chain of UniProt P07948 (whole entry, looked up): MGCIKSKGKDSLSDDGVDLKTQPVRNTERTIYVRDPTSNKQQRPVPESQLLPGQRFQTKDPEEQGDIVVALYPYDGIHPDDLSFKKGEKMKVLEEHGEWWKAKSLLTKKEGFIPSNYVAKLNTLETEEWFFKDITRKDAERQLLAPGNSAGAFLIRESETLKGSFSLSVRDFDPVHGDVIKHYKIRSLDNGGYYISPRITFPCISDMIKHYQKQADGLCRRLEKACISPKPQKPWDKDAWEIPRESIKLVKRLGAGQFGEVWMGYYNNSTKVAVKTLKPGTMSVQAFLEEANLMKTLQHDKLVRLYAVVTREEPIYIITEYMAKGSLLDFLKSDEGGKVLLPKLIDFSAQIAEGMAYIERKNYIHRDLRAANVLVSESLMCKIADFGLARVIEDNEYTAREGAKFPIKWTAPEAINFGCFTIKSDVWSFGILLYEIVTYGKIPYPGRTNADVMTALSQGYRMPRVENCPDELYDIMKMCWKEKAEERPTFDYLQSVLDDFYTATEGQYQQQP
COc1ccc(OC)c2c(=S)c3ccccc3[nH]c12: 106%
COc1cc2ncnc(Nc3ccc(Oc4ccccc4)cc3)c2cc1OC: 21.6%
O=S(=O)(c1cccc2cnccc12)N1CCCNCC1: 106%
COc1ccc(CNC(=O)Nc2ncc([N+](=O)[O-])s2)cc1: 91.4%
Nc1ccc2ncnc(NCCc3ccc(Oc4ccccc4)cc3)c2c1: 103%
COc1cc2nccc(Oc3ccc(NC(=S)NC(=O)c4ccccc4C)cc3)c2cc1OC: 16.9%
N#CC(C#N)=C(N)/C(C#N)=C/c1ccc(O)cc1: 92.2%
O=C(CCCc1ccc(-c2ccccc2F)cc1)Nc1ccc(O)cc1: 102%
Oc1ccc(-c2nc(-c3ccncc3)c(-c3ccc(F)cc3)[nH]2)cc1: 94.8%
Cc1cccc(-c2[nH]c(C(C)(C)C)nc2-c2ccc3c(c2)OCO3)n1: 99.2%
OCC(O)CCON=C1C(c2c(O)[nH]c3ccccc23)=Nc2ccccc21 (centres unmarked): 25.4%
CCOC(=O)c1c(C)[nH]c(/C=C2\C(=O)Nc3ccccc32)c1C: 84.1%
O=C(Nc1cccc(Nc2cc(Nc3cccc(C(F)(F)F)c3)ncn2)c1)C1CC1: 102%
Nc1ncnc2n[nH]c(Nc3ccc(F)cc3)c12: 89.7%

Series 4 — cell line: mouse MPNST tumor cells; technique: high-content nuclear imaging; refers to: cell number; tested at: 10 µM; time: 12 h; notes: mean of 2 replicates; relative to: plate mean; direction: higher = more cells; endpoint: nuclei count
CC(CN(C)C)C(C)(O)Cc1ccc(Cl)cc1 (centres unmarked): 3.22 z-score
CCOC(=O)c1c(-c2ccccc2)oc2ccc(Oc3c([N+](=O)[O-])ncn3C)cc12: -3.01 z-score
CC(=O)Nc1ccc(OCC(O)CNC(C)C)cc1 (centres unmarked): 0.634 z-score
Nc1ccc(S(=O)(=O)Nc2nccs2)cc1: 0.938 z-score
c1coc(-c2nnc3sc(C4CCCCC4)nn23)c1: 0.843 z-score
